Results gathered from unrelated publications.
Numbered parts are unrelated; each lists some results of a single study. Substitutions count along the parent as printed.

Sample 1
Target: RNA binding protein fox-1 homolog 2, RRM domain, GST-SBP tag (RBFOX2, Homo sapiens, UniProt O43251-10, residues 100-194)
Method: RNA Bind-n-Seq
Molecule type: RNA
Medium: in vitro
Concentration: 365 nM
Notes: natural RNA segment, single round, ends assumed
Baseline: no-protein control
Direction: higher = stronger binding
Target sequence (chain): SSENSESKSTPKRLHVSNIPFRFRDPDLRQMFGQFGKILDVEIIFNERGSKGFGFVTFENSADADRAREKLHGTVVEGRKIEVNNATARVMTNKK
For `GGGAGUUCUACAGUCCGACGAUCAAUAAGAAAAGAGGACUUAAUUCUGAUCUUUUCUAAGCCAAGAGCAGAAAAGACUUCUUAAAUCCACUCCAGGGAAUACUUGAAAGGCAAGUCAUUGUGACUAACACUUCUGGAAUUCUCGGGUGCCAA`, “RBNS enrichment (R)” read 0.191.
`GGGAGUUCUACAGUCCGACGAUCUUUUCGUAUUUGUGCAGAAAAACAAAUUAGGCCUAAAGUAUUGGUUUUUACCUGUACCAUCCACUCCGUGCCUUACUGUAUCCUGUCCUGUCACAGCGGCUGCAAACAGUUGGAAUUCUCGGGUGCCAA`: “RBNS enrichment (R)” 0.3.
For `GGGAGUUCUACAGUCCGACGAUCUUUGGGUUUCCUUGUGAAGUUGGAGGGAAGUUUAUAAUAGCCUAACACUACCCCACCCCCAACUAGGAGGAACCUCUGUUUUCAAGAGAGAUGCCUGUCCUGUGCUUGGAUGGAAUUCUCGGGUGCCAA`, “RBNS enrichment (R)” read 0.545.
`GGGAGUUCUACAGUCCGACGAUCUGACAUUCCCUUAGCACCAGCUGUCCCACCUCCAGGGUCCUGACCAGGUCAGAGAUGUCCCCUGCCAUGCAGAGCAGGAAGCCUCAGCUGGGCCUGGAGUGUCCCUGCUCUGGAAUUCUCGGGUGCCAA`: “RBNS enrichment (R)” 0.326.
`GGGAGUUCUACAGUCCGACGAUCAAAUUGAAAAUUGCCUUGCAGAUAUUUAGGUACAAUGGAGUUUUCUUUUCCCAAACGGGAAGAACACAGCACACCCGGCUUGGACCCACUGCAAGCUGCAUCGUGCAACCUGGAAUUCUCGGGUGCCAA`: “RBNS enrichment (R)” 1.84.
`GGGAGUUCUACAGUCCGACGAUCCUUAACCAGCAGGGCAAAUUCCACUUGCAGACAUCCUUUACUCUGUGGUCCCUUGUUAGUACCGAAGUGCAAAAAAGAAAUGCAGUUCUGUGUUUGGAACAAGAAGCAUCUGGAAUUCUCGGGUGCCAA`: “RBNS enrichment (R)” 0.446.
`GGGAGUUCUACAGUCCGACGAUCGGAUAUUUGGGUGGGACAGACAGAAGACACACAGCUGCCUGUUCUCUCCUGCCCAUCAUGUUUGGCCCACUAGAUGAAGCUGUACUCAGCAAUUUAGGGAAUGUAACCCUUGGAAUUCUCGGGUGCCAA` — result for “RBNS enrichment (R)”: 0.332.
`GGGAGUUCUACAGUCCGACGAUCACCUCACGCCUGAGAUGAUCCUCAGCAUGAUGGACCGUGAUGCUGGGGCCUUGCUCGGCACCAGGACUAUUGGGCUGUGUUUAAACGGCCCAAAUCUUAAUUUUUCUCUUUGGAAUUCUCGGGUGCCAA` — result for “RBNS enrichment (R)”: 8.46.
`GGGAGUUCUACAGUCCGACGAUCAGUAUGUUUGUGUUAAUAAAGCCAGGGCGUUUCACACUUUAUAUGAACUUCCCUUUUUUUAAGAAAUGGAAAUUUGACAUGUAAAAUAAAUCAAACUUGGUAAACAGGGCUGGAAUUCUCGGGUGCCAA`: “RBNS enrichment (R)” 0.573.
`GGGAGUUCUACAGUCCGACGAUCCUCUACCAUGGUUCUGCCUCCUGGCCAAGCAGGCUGGUUUGCAAGAAUGAAAUGAAUGAUUCUACAGCUAGGACUUAACCUUGAAAUGGAAAGUCAUGCAAUCCCAUUUGUGGAAUUCUCGGGUGCCAA` — result for “RBNS enrichment (R)”: 1.07.
`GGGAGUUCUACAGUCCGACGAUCGAAGGCUGGUGCACUCAGGGCUGUGGGAAGGCAGAAUCACCUCAUCCAUUUGGCCUGUGAAGGAAGUAACCUCACUUUGCUGUCUGAGCAGCAUGUAUUCCUGGCAUGGGUGGAAUUCUCGGGUGCCAA`: “RBNS enrichment (R)” 2.05.
For `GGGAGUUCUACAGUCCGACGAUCGAGGCAAGCAGAUCCCUGAGUUUGAGGUAAGCCUGAUUUACAGAGCAAGUUCCAAGACACCAGGCAAUACAGAGAAACCUGCCUCAAGCCAUCUGCUCCCUGAAAAAAGAUGGAAUUCUCGGGUGCCAA`, “RBNS enrichment (R)” read 0.472.

Sample 2
Target: CCND2, cyclin fold, Cln2 fusion (human)
Method: yeast growth competition, sequencing
Medium: yeast
Notes: weak parent motif
Baseline: not given
Direction: higher = stronger binding
Parent: DBF4 docking peptide (human); DDIVSKLVFDFVE; partner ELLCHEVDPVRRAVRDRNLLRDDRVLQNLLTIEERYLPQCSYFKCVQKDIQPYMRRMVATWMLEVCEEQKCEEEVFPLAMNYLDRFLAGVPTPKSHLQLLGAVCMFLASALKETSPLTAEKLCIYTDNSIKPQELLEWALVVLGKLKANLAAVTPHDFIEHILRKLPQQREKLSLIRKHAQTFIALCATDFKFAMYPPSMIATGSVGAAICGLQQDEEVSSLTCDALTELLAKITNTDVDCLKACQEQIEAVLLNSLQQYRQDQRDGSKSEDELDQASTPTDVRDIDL
`I3A`: “normalised enrichment score” 0.144.
`S5A` — result for “normalised enrichment score”: -0.273.
Under “normalised enrichment score”, `L7A` is recorded as -0.124.
`K6A` — result for “normalised enrichment score”: -0.248.
For `F11A`, “normalised enrichment score” read -0.00791.
Under “normalised enrichment score”, `V8A` is recorded as -0.137.

Sample 3
Target: Hepatocyte nuclear factor 3-beta, forkhead domain (FOXA2, Homo sapiens, UniProt Q9Y261, residues 142-269)
Method: protein-binding microarray
Molecule type: hairpin DNA
Medium: in vitro
Concentration: not given
Notes: whole hairpin DNA, median over replicate spots
Baseline: not given
Direction: higher = stronger binding
Residues (chain): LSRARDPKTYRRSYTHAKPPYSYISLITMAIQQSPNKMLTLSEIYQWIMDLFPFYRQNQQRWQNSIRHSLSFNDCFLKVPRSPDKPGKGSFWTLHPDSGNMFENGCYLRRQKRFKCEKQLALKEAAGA
The median fluorescence of `GAGGCCATGCAAACAACGCCTCCTGGCGTTGTTTGCATGGCCTCACACTC (5mC at 14)` is reported as 3780 a.u.
For `GAGGCCATGTCGACAACGCCTCCTGGCGTTGTCGACATGGCCTCACACTC (5mC at 11)`, the median fluorescence was 3220 a.u.
For `GAGGCCATCGAAACAACGCCTCCTGGCGTTGTTTCGATGGCCTCACACTC (5mC at 9)`, the median fluorescence was 3200 a.u.
For `GAGGCCATGTAAACACCGCCTCCTGGCGGTGTTTACATGGCCTCACACTC (5mC at 16)`, the median fluorescence was 3960 a.u.
`GAGGCCATGTTACCAACGCCTCCTGGCGTTGGTAACATGGCCTCACACTC` gave a median fluorescence of 3000 a.u.
For `GAGGCCCTGCAAACAACGCCTCCTGGCGTTGTTTGCAGGGCCTCACACTC`, the median fluorescence was 3420 a.u.
`GAGGCCATGCAAAGAACGCCTCCTGGCGTTCTTTGCATGGCCTCACACTC` gave a median fluorescence of 3240 a.u.
For `GAGGCCATGCGAACAACGCCTCCTGGCGTTGTTCGCATGGCCTCACACTC (5mC at 10)`, the median fluorescence was 3360 a.u.
For `GAGGCCATGTAACCAACGCCTCCTGGCGTTGGTTACATGGCCTCACACTC (5mC at 36)`, the median fluorescence was 3050 a.u.
`GAGGCCATGTAACCCACGCCTCCTGGCGTGGGTTACATGGCCTCACACTC` gave a median fluorescence of 3180 a.u.
With `GAGGCCATGTAAACACGGCCTCCTGGCCGTGTTTACATGGCCTCACACTC (5mC at 28)` the median fluorescence was 3990 a.u.
`GAGGCCAGGTAACCAACGCCTCCTGGCGTTGGTTACCTGGCCTCACACTC` has a median fluorescence of 3440 a.u.
With `GAGGCCATGTAAACACGGCCTCCTGGCCGTGTTTACATGGCCTCACACTC (5mC at 16)` the median fluorescence was 3560 a.u.
For `GAGGCCATGTAAACGACGCCTCCTGGCGTCGTTTACATGGCCTCACACTC (5mC at 30)`, the median fluorescence was 3740 a.u.
The median fluorescence of `GAGGCCATGTCACCAACGCCTCCTGGCGTTGGTGACATGGCCTCACACTC (5mC at 11)` is reported as 3290 a.u.
The median fluorescence of `GAGGCCATGTCGACAACGCCTCCTGGCGTTGTCGACATGGCCTCACACTC` is reported as 3510 a.u.
With `GAGGCCATGCAAACACCGCCTCCTGGCGGTGTTTGCATGGCCTCACACTC` the median fluorescence was 3650 a.u.

Sample 4
Target: RING finger protein unkempt homolog, zinc fingers 1-6, GST-SBP tag (UNK, Homo sapiens, UniProt Q9C0B0, residues 30-357)
Chain of UniProt Q9C0B0 (30-357, looked up): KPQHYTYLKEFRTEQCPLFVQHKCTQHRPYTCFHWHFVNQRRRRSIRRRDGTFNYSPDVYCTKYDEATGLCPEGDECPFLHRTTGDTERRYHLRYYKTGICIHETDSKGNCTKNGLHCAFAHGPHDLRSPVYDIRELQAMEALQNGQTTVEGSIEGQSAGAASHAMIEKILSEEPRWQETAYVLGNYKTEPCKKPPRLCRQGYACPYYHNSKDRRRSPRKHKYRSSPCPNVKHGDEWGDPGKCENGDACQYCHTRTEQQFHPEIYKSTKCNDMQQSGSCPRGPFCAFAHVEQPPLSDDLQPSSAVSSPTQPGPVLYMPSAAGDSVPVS
Method: RNA Bind-n-Seq
Molecule type: RNA
Medium: in vitro
Concentration: not given
Notes: RNA with constant flanks, human and mouse sites, ends assumed
Baseline: input RNA pool
Direction: higher = stronger binding
For `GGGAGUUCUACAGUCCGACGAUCUAAGACAGGCAUCAGUAUGUCCCUUCUUACCGUAAUAGAAAAACUGAGAGAAAGGACAGACCAGAAUGCAUCAGAUGAUGACAUUUUGAAAGAGUUGCAGGACAAUGCCCAGUGUCAGCCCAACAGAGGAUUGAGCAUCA`, the bound/input enrichment was 0.157 ratio.
`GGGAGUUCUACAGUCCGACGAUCAUAUUUUCACAUGCUUAUUUUCAUCAUCGGCAGAUAUUUGAUGAAUAUGAAAAUGAAACAUUUUUGUGUCAUCGGUUUACUAAGUUUGUGAUGAAAUACAAUUUGAUGUCCAAGGAUAACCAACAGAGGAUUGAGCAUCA` has a bound/input enrichment of 0.165 ratio.
With `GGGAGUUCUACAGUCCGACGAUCCUUUUUCUUUUUCUUUUUUUUUUUAAUAAAAAGGUUGAACUGUUUUUUUUUUCUUUUUGGUAUUAAGUCCAUCUUGUGUUGGUACAUUGGCAGAAACAUAUGCUUUAAAACUUAACUAUUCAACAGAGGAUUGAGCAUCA` the bound/input enrichment was 0.825 ratio.
The bound/input enrichment of `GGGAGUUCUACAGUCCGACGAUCUUAGGCACAGCUGACAUGGCCACUUUCAUGGUCAAUUCACUAUAUAUGAUGAAGACAACAUUAGCUCUAUUUGAAUUCACUGACAGACGUCUGGAAAUGCUACAGUUUCAGAUCGAAGCACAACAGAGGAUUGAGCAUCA` is reported as 1.04 ratio.
The bound/input enrichment of `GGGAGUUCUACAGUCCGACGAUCUUUCAGAAAUAUAGAGGCCUCAAGAGUUUCCGGACAUCUCCUUGGGAUCCUAAAGAAAACCUUCCUAGAGAUUAUGCUCGGAUAUUUCAGUUUCAGAAUUUUGUUAAUACUAGAAAAAGACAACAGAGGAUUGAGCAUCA` is reported as 0.66 ratio.
With `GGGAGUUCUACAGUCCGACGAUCCUUCCUAAUAAAGUGCCAUACUCUUUUCUACAACGCAUGUUAAAAAGAGGAAAAGAGGCUCCUUUGAUCGCUGAUAAUCAUCUUGAGAAUGUUUGUUUAAGGACUCCAGCAGAAGAUGAGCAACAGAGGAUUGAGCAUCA` the bound/input enrichment was 0.115 ratio.
`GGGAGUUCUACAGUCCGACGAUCAGAGGCUGAGAGUCCCCCCCACGGUUUUUUUUUUUCUUCAUUUAGAUGUAACAAGCCUAGUAGUUUAUGUUCAUCAAUUGUCUGUAUAUCUAUAUUUUACCCAUGUACUCUUUUGAUGUACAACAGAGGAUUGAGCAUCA` has a bound/input enrichment of 14.4 ratio.

Some of these lines once more (sample 4):
`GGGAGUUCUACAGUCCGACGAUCAGAGGCUGAGAGUCCCCCCCACGGUUUUUUUUUUUCUUCAUUUAGAUGUAACAAGCCUAGUAGUUUAUGUUCAUCAAUUGUCUGUAUAUCUAUAUUUUACCCAUGUACUCUUUUGAUGUACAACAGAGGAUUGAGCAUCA` has a bound/input enrichment of 14.4 ratio.
The bound/input enrichment of `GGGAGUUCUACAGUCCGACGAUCUUUCAGAAAUAUAGAGGCCUCAAGAGUUUCCGGACAUCUCCUUGGGAUCCUAAAGAAAACCUUCCUAGAGAUUAUGCUCGGAUAUUUCAGUUUCAGAAUUUUGUUAAUACUAGAAAAAGACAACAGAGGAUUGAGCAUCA` is reported as 0.66 ratio.
For `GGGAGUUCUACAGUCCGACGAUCUAAGACAGGCAUCAGUAUGUCCCUUCUUACCGUAAUAGAAAAACUGAGAGAAAGGACAGACCAGAAUGCAUCAGAUGAUGACAUUUUGAAAGAGUUGCAGGACAAUGCCCAGUGUCAGCCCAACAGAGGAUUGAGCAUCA`, the bound/input enrichment was 0.157 ratio.
